# Earlier results as cited in several papers.
# Lines come from different studies, so protocols differ. Numbers after ± are the reported error.
Compound,tested on,system,setting,scale,measurement,value
CN(C)CCCOc1cc(F)c(-c2c(Cl)nc3ncnn3c2NCC2CCC2)c(F)c1,HEK293,,"1 µM, 4 h, unit not given",baseline: vehicle (DMSO),total α-tubulin level,0.8 ± 0.03
C/C=C/CNC(=N)NCCCCCCCCN1CCCCCCCCNC(=N)NC1=O,Candida krusei,,,,MIC50,5 µg/mL
CC(C)C(=O)Nc1c(NC[C@H](O)[C@H](O)[C@H](O)CO)[nH]c(=O)[nH]c1=O,Bacillus subtilis lumazine synthase,recombinant β60 capsid,"pH 7.0, Tris·HCl buffer, together with: 2 constant, 1 varied",,Ks,3.6 ± 0.3 µM
CNCCCOc1cc(F)c(-c2c(Cl)nc3ncnn3c2NCC(F)(F)F)c(F)c1,HEK293,,"10 µM, 4 h, unit not given",baseline: vehicle (DMSO),total α-tubulin level,0.39 ± 0.02
O=C(Nc1ccccc1-c1cc(F)cc(F)c1)c1nccnc1C(F)(F)F,Blumeria graminis,barley,,,EC80,0.5 to 2 mg a.i./L
CN(C)CCCOc1cc(F)c(-c2c(Cl)nc3ncnn3c2NCC(C)(C)C)c(F)c1,HEK293,,"1 µM, 4 h, unit not given",baseline: vehicle (DMSO),acetylated α-tubulin level,5.98 ± 0.11
O=C(Nc1ccccc1-c1ccc(Cl)c(F)c1)c1nccnc1C(F)(F)F,Botrytis cinerea,cucumber,,,EC80,2 to 10 mg a.i./L
C[C@@](CCn1ccc(-c2ccccc2)cc1=O)(C(=O)NO)S(C)(=O)=O,Enterobacter spp.,,,,MIC90,16 µg/mL
C[C@@H](Nc1c(-c2c(F)cc(OCCCO)cc2F)c(Cl)nc2ncnn12)C(C)(C)C,HEK293,,"1 µM, 4 h, unit not given",baseline: vehicle (DMSO),acetylated α-tubulin level,9.17 ± 0.13
O=C(Nc1ccccc1-c1ccc(F)cc1)c1nccnc1C(F)(F)F,Puccinia triticina,wheat,,,EC80,20 to 100 mg a.i./L
Cc1ccc(/N=N/c2c(C)c(C(=O)Nc3ccccc3)c(N)n(-c3ccccc3)c2=O)cc1,Salmonella typhimurium,,,,MIC,1.9 µg/mL
O=C(Nc1ccccc1-c1ccc(Br)cc1)c1nccnc1C(F)(F)F,Botrytis cinerea,cucumber,,,EC80,2 to 10 mg a.i./L
CNC(=O)c1ccccc1Oc1nc(Nc2cc(OC)c(OC)c(OC)c2)ncc1Br,ULK1,,1 µM,,inhibition,63%
CC1CC(C)(C)c2cccc(NC(=O)c3cccnc3Cl)c21 (centres unmarked),Puccinia triticina,wheat,,,EC80,1 to 10 mg a.i./L
CN(C)CCCOc1cc(F)c(-c2c(Cl)nc3ncnn3c2NCC2(C)CC2)c(F)c1,HEK293,,"10 µM, 4 h, unit not given",baseline: vehicle (DMSO),total α-tubulin level,1.1 ± 0.2
CC1CC(C)(C)c2cccc(NC(=O)c3nccnc3C(F)(F)F)c21 (centres unmarked),Botrytis cinerea,cucumber,,,EC80,10 to 40 mg a.i./L
CCCCCCCCCCCCCCCCOCCOP1(=O)COC(Cn2cnc(N)nc2=O)CO1 (centres unmarked),human cytomegalovirus,,,baseline: cytotoxicity over antiviral activity,selectivity index,≥ 24600
C[C@@H](Nc1c(-c2c(F)cc(C#CCCN(C)C)cc2F)c(Cl)nc2ncnn12)C(C)(C)C,HEK293,,"1 µM, 4 h, unit not given",baseline: vehicle (DMSO),acetylated α-tubulin level,9.5 ± 0.34
CC1=CCC23OC2(C)CCC2C(CN(C)C)C(=O)OC2C13.Cl (centres unmarked),sarcoma 180 tumour model,host not given,"intraperitoneal and intratumoral, concentration not given",,tumour growth inhibition,70%
Cc1ccc(Nc2nc3ccccc3c3[nH]nc(N)c23)cc1,intestinal beta-glucuronidase,BALB/cJ mouse,"oral, dose not given, 5 consecutive days",,inhibition,40%

# Excerpt of the above:
Compound,tested on,system,setting,scale,measurement,value
CC1CC(C)(C)c2cccc(NC(=O)c3nccnc3C(F)(F)F)c21 (centres unmarked),Botrytis cinerea,cucumber,,,EC80,10 to 40 mg a.i./L
CCCCCCCCCCCCCCCCOCCOP1(=O)COC(Cn2cnc(N)nc2=O)CO1 (centres unmarked),human cytomegalovirus,,,baseline: cytotoxicity over antiviral activity,selectivity index,≥ 24600
C[C@@H](Nc1c(-c2c(F)cc(C#CCCN(C)C)cc2F)c(Cl)nc2ncnn12)C(C)(C)C,HEK293,,"1 µM, 4 h, unit not given",baseline: vehicle (DMSO),acetylated α-tubulin level,9.5 ± 0.34
